Published values of several laboratories.
Protocols differ between the studies behind these lines. Several values in a cell are separate wells, animals, samples, runs or records.

[BH3-][P+]1(c2ccccc2)CCCCC1
early apoptotic cells (SW-620; annexin V/PI flow cytometry; IC50, 72 h): 5.1%

O=C(CCCCCOc1ccc2ccccc2c1)N[C@@H](CO)C[C@@H](O)c1ccc(-c2ccccc2)cc1
ceramide level (HeLa; CERT activity, HPLC-MS/MS lipidomics, refers to: ceramide 22; 1 µM, 24 h, not cell-number normalised): 2040 pmol/sample and 2240 pmol/sample

Cc1cc(Cl)cc(-c2ccnc3cc(CN4C(=O)C5C(C4=O)C5(C)C)sc23)c1C[C@@H]1CNCCO1 (stereo partly shown)
viability (CHP-212 USP7 V517F knock-in clone; SRB; 0.07812 µM): 106%

CO[C@@H]1[C@@H](OC(N)=O)[C@@H](O)[C@H](Oc2ccc3c(O)c(NC(=O)c4ccc(O)c(CC=C(C)C)c4)c(=O)oc3c2C)OC1(C)C
colony survival (DLD-1 BRCA2-/-; 300 µM, replicate B; relative to: untreated): 0.312%

CCN(CC)CC(=O)Nc1cccc(-n2cc(-c3ccc4ccc(-c5cn(-c6cccc(NC(=O)CN(CC)CC)c6)nn5)cc4c3)nn2)c1
fold regulation (RCC4; PCR angiogenesis array, refers to: ITGB3; 5 x IC50, 6 h, normoxia; relative to: untreated): -1.13

CC(C)c1ccc(N(C)c2ccc3c(c2)OCC[C@H]3CNc2cnccc2C(=O)O)cc1
IC50 (NCI-N87; cell growth or viability, ATP luminescence; 7 days): 4.29 nM

CCN(C(=O)c1cc(F)ccc1Oc1nncnc1N1CCC2(C1)CN([C@H](CCCN(C)CCOC)C(C)C)C2)C(C)C
GI50 (OVCAR-4; cell growth or viability; 7 days): > 10000 nM

[Cl-].[Cl-].[Ru+2].c1cc(-c2ccc3cccnc3n2)nc(-c2ccc3cccnc3n2)c1.c1ccc2cc3nc4c5cccnc5c5ncccc5c4nc3cc2c1
phototoxicity index (B16-F10; resazurin; together with: light 523 nm, 100 J/cm2; relative to: dark EC50 over light EC50): 2

NC(=O)c1ccc(-c2ccccc2Cl)c2c3c([nH]c12)CCC(N)C3 (stereo not shown)
IC50 (A549/DDP, cisplatin-resistant; cell growth, CellTiter-Glo; 96 h): 30.1 nM

CCCCCCCCCCCCCCCC(=O)OCC(CSC[C@H](N)C(=O)N[C@@H](CO)C(=O)N[C@@H](CCCCN)C(=O)N[C@@H](CCCCN)C(=O)N[C@@H](CCCCN)C(=O)N[C@@H](CCCCN)C(=O)NCCCCCC(=O)N[C@@H](CCCCN)C(=O)N[C@@H](CC(C)C)C(=O)N[C@H](C(=O)N[C@@H](Cc1ccccc1)C(=O)N[C@@H](Cc1ccccc1)C(=O)N[C@@H](Cc1ccc2ccccc2c1)C(=O)O)C(C)C)OC(=O)CCCCCCCCCCCCCCC (stereo partly shown)
mRNA level (BV-2; RNA-seq, refers to: Tnf; concentration not given): 321 FPKM and 336 FPKM

Cc1nc(Nc2ncc(C(=O)Nc3c(C)cccc3Cl)s2)cc(N2CCN(C(=O)CN)CC2)n1
late apoptotic cells (KU812; flow cytometry; concentration not given, 24 h): 21.2% and 21.7% and 22.1%

O=C(C[Se]C(=O)c1ccc2ccccc2c1)Nc1cccc(C(F)(F)F)c1
GI50 (NCI60 breast subpanel; NCI60 five-dose screen): 2030 nM

Cn1ncc2cc(-c3cncc(Cl)c3N3CCC4(CCNC4=O)CC3)ccc21
log2 fold change (LS174T; gene expression, microarray, refers to: DRD2 mRNA; concentration not given, 4 h; relative to: untreated cells): 2.27

CC(C)(C)c1cc(-c2ccc3cc4ccccc4nc3n2)nc(-c2ccc3cc4ccccc4nc3n2)c1.Cc1ccncc1.[Cl-].[Cl-].[Ru+2].c1ccc2cc3nc4c5cccnc5c5ncccc5c4nc3cc2c1
phototoxicity index (B16-F10; resazurin; together with: light 523 nm, 100 J/cm2; relative to: dark EC50 over light EC50): 4

O=C(N1CCCC1)n1cc(-c2ccc(-c3ccccc3)cc2)nn1
SILAC ratio per peptide (mouse T cells; N-terminal labelling proteomics, refers to: Arhgef2 N-terminal peptide; 0.001 µM, 6 h; relative to: DMSO): 1.26 and 1.18 and 1.01

CC(C)(C)c1cc(-c2ccc3cccnc3n2)nc(-c2ccc3cccnc3n2)c1.COc1ccncc1.[Cl-].[Cl-].[Ru+2].c1ccc2cc3nc4c5cccnc5c5ncccc5c4nc3cc2c1
phototoxicity index (B16-F10; resazurin; together with: light 523 nm, 100 J/cm2; relative to: dark EC50 over light EC50): 63

O=C(C[Se]C(=O)c1ccccc1Nc1ccccc1)Nc1cccc(C(F)(F)F)c1
GI50 (NCI60 breast subpanel; NCI60 five-dose screen): 1990 nM

CN1CCCNC(=O)c2cccc(c2)C(=O)NCCCN(C)CCCNc2cccc3c2C(=O)c2cccc(c2C3=O)NCCC1
log2 fold change (SAS; RNA-Seq, refers to: SCAF8 mRNA; 1 µM, 6 h; relative to: untreated cells): -1.28

O=C1c2c(O)cc(O)cc2-c2c(-c3ccc(O)cc3)oc3cc(O)cc1c23
protein level ratio (LCC2 shControl cells; label-free MS proteomics, refers to: CDKN1A; 10 µM; relative to: DMSO): 10.8

CC(=O)NCC(=O)N[C@@H](Cc1ccc(O)cc1)C(=O)NCC(=O)N[C@@H](CO)C(=O)N[C@@H](CO)C(=O)N[C@@H](CO)C(=O)N[C@@H](CCCNC(=N)N)C(=O)N[C@@H](CCCNC(=N)N)C(=O)N[C@@H](C)C(=O)N1CCC[C@H]1C(=O)N[C@@H](CCC(N)=O)C(=O)N[C@H](C(=O)O)[C@@H](C)O
EdU-positive cells (mouse dermal papilla cells; 100 nM, 48 h): 15.9%

CSCC[C@@H](N)C(=O)N[C@@H](CC(C)C)C(=O)N[C@@H](CCCNC(=N)N)C(=O)N[C@@H](Cc1c[nH]c2ccccc12)C(=O)N[C@@H](CO)C(=O)N[C@@H](CCCNC(=N)N)C(=O)N[C@@H](CCCCN)C(=O)N[C@@H](CCSC)C(=O)N1CCC[C@H]1C(=O)N[C@@H](CS)C(=O)N[C@H](C(=O)N[C@@H](CO)C(=O)O)C(C)C
inhibition (SUP-T1; CXCL12-induced Erk phosphorylation, phospho flow cytometry; concentration not given, together with: CXCL12): no inhibition

CNS(=O)(=O)Nc1nccc(Cc2c(C)c3ccc(Oc4ncccc4F)cc3oc2=O)c1F
IC50 (Z-138; cell viability; 7 days): > 1000 nM

Cc1ncsc1-c1ccc(C(C)NC(=O)C2CC(O)CN2C(=O)C(NC(=O)CCCCCCCCCCN2CCCC(Nc3ncc(Cl)c(Nc4ccccc4S(=O)(=O)C(C)C)n3)C2)C(C)(C)C)cc1 (stereo not shown)
log2 fold change (22Rv1; RNA-seq, refers to: TMEM186 mRNA; concentration not given; relative to: DMSO): -1.3

COCCCCCNc1nc(NCCCCCCN(C)C)c2cc(NC(=O)/C=C/CN(C)C)ccc2n1
viability (MCF7; CellTiter-Glo; 0.3906 µM, 48 h, unit not given; relative to: DMSO-treated cells): 1.06 and 1.05 and 1.16

CC(=NN=c1sc(C(=O)c2ccccc2)nn1-c1ccccc1)c1ccc(S(=O)(=O)N2CCC(C)CC2)cc1
cells in pre-G1 phase (HCT-116; flow cytometry; 3.66 µM (IC50), 72 h): 16.1%

For quick reference, copied from above:
CCN(CC)CC(=O)Nc1cccc(-n2cc(-c3ccc4ccc(-c5cn(-c6cccc(NC(=O)CN(CC)CC)c6)nn5)cc4c3)nn2)c1
fold regulation (RCC4; PCR angiogenesis array, refers to: ITGB3; 5 x IC50, 6 h, normoxia; relative to: untreated): -1.13

CC(C)c1ccc(N(C)c2ccc3c(c2)OCC[C@H]3CNc2cnccc2C(=O)O)cc1
IC50 (NCI-N87; cell growth or viability, ATP luminescence; 7 days): 4.29 nM
